Experimental data pooled from the literature.
Compare with care: the assays were run in different laboratories. “And” joins repeats or separate records; there may be more than shown. ± gives the spread as reported.

Compound	test	test system	conditions	scale	endpoint	value
CC(C)OC(=O)[C@H](CO)NCc1cc(Cl)c(OCc2cccc(-c3ccccc3)c2Br)cc1OCc1cccnc1	–	hPD-L1 MC-38 tumour, humanised hPD-1 C57BL/6 mouse	oral, 10 mg/kg × 21, day 20	–	tumour volume	1000 ± 586 mm³
Cc1cc(OCCOCCn2ccnc2)cc(C(C)C)c1	locomotor activity in dark	zebrafish larvae, 7 dpf	10 µM, minute 7, dark phase	–	larval motion	0.8 ± 0.4 pixels/frame
CN(C)C(=O)c1ccnc(N2Cc3cn(Cc4ccc(F)cc4F)nc3C2)n1	–	mouse, hippocampal slice, Schaffer collaterals	dose not given, interstimulus interval 300	baseline: second over first response	paired-pulse ratio	1.24 and 1.32 and 1.23 and 1.26 and 1.16 and 1.75 and 1.14 and 1.22
Cc1cn(CC(=O)N(CC(=O)N[C@H]2CCC[C@@H]2N(CC(=O)N[C@H]2COC[C@@H]2N(CC(=O)N[C@H]2COC[C@@H]2N(CC(=O)N[C@H]2COC[C@@H]2N(CC(=O)NCCOCCOCC(N)=O)C(=O)Cn2cnc3c(N)ncnc32)C(=O)Cn2cc(C)c(=O)[nH]c2=O)C(=O)Cn2cnc3c(N)ncnc32)C(=O)Cn2cnc3c(=O)[nH]c(N)nc32)[C@H]2CCC[C@@H]2NC(=O)CN(C(=O)Cn2cnc3c(=O)[nH]c(N)nc32)[C@H]2CCC[C@@H]2NC(=O)CN(C(=O)Cn2cc(C)c(=O)[nH]c2=O)[C@H]2COC[C@@H]2NC(=O)CN(C(=O)Cn2cnc3c(N)ncnc32)[C@H]2COC[C@@H]2NC(=O)CN(C(=O)Cn2cnc3c(=O)[nH]c(N)nc32)[C@H]2COC[C@@H]2N)c(=O)[nH]c1=O	UV melting	RNA duplex with T·U mismatch	pH 7.2, 1 µM each strand	–	Tm	60.2 °C
CN(Cc1ccc(/C=C/C(=O)NO)cc1)CC12CC3CC(CC(C3)C1)C2	item: H3K9ac	mouse	24 h, cell-based	–	EC50	100 nM
Cc1cc(OCCOCCN(C)C)cc(C(C)C)c1	locomotor activity in dark	zebrafish larvae, 7 dpf	10 µM, minute 3, dark phase	–	larval motion	1.3 ± 0.3 pixels/frame
COc1ccc2c(c1)c(CC(=O)[O-])c(C)n2C(=O)c1ccc(Cl)cc1.COc1ccc2c(c1)c(CC(=O)[O-])c(C)n2C(=O)c1ccc(Cl)cc1.[Co+2].c1c[nH]cn1.c1c[nH]cn1	DPPH	methanol	concentration not given, 30 min	–	DPPH radical scavenging	15 ± 0.76%
Cc1cc(C(C)(C)C)ccc1OCCOCCN(C)C	–	zebrafish larvae, 7 dpf	10 µM, minute 6	–	larval motion	15 ± 1.4 pixels/frame
COc1cc(N2CCN(C(=O)C3CCCN3)CC2)ccc1Nc1ncc(Cl)c(Nc2ccccc2P(C)(C)=O)n1 (stereo not drawn)	–	nude mice, NCI-H3122 xenograft	oral, 25 mg/kg every two days, day 1	–	tumour volume	60.8 mm3 and 48.7 mm3 and 79.6 mm3 and 17.9 mm3 and 63 mm3
CCOC(=O)C1CCN(CCC(=O)Nc2ccccc2F)CC1	–	zebrafish larvae, 7 dpf	10 µM, minute 4	–	larval motion	0.5 ± 0.3 pixels/frame
O=S(=O)(NCc1ccncc1)c1ccc(C2CCCCC2)cc1	immunohistochemistry	CK-p25 mice female, hippocampus	ip, 0.3 mg/kg daily, 6 wk	baseline: vehicle	GFAP area reduction	~25%
NC[C@@H](C(=O)Nc1ccc(-c2cn[nH]c2)cc1)c1ccccc1	tonometry	NZW rabbit, magnetic bead-induced ocular hypertension	ocular, 0.1%, 8 h	–	IOP	30.5 mmHg
COc1cc(O)ccc1CCC(c1ccc(O)cc1)c1cc2c(c(C)c1O)OC(c1ccc(O)cc1)CC2 (mixture of isomers)	–	human blood	3 µM, together with: A23187	–	14-HDHA level	549 ± 118 pg/mL
CN1CCC[C@]1(C)/C=C/S(=O)(=O)NC(=O)Nc1c2c(cc3c1CCC3)CCC2	–	human, whole blood ex vivo	25 mg single dose, 6 h, single ascending dose, together with: LPS and ATP	–	IL-1β inhibition	98.2%
O=C(CCN1CCN(C/C=C/c2ccccc2)CC1)Nc1ccc2c(c1)CCC2	–	zebrafish larvae, 7 dpf	10 µM, minute 6	–	larval motion	16.8 ± 2.1 pixels/frame
COc1cc2c(cc1OC)-c1cc3ccc(OC)c(OC)c3c[n+]1CC2.[Cl][Fe-]([Cl])([Cl])[Cl]	–	–	1.0 mg/mL, 30 min, 25 °C	–	DPPH scavenging	33.4%
CN(C)CCOCCOc1ccc(Cl)c(Cl)c1	locomotor activity in dark	zebrafish larvae, 7 dpf	10 µM, minute 5, dark phase	–	larval motion	1.2 ± 0.6 pixels/frame
Cc1cnc2nc1Nc1cccc(c1)COC/C=C/COCc1cc(ccc1OCCN1CCOCC1)N2	–	BALB/c mice rhEPO-induced polycythemia, spleen	75 mg/kg	–	CD71/Ter119 cells	19.3% and 22.5% and 20.3% and 19.6% and 15.7% and 23.4%
O=C(CCN1CCN(C/C=C/c2ccccc2)CC1)Nc1ccccc1	locomotor activity in dark	zebrafish larvae, 7 dpf	10 µM, minute 5, dark phase	–	larval motion	2.5 ± 0.6 pixels/frame
CN(C)CCCSC(=S)N1CCN(C(=O)/C=C/c2coc3ccccc3c2=O)CC1	N condensate formation, confocal microscopy, item: N-YFP	Nicotiana benthamiana leaves	100 µg/mL, 72 h post-injection, injected 36 h post-infiltration	–	inclusion body count	9 and 6 and 8 and 14
COc1ccccc1C(C[N+](=O)[O-])c1c(-c2ccccc2)[nH]c2ccccc12 (stereo not drawn)	mechanical allodynia, von Frey	mice, chronic constriction injury	dose not given, 6 h, highest dose	–	maximal possible effect	80%
CC(=O)[O-].O.O.O.O.[Ni+2].[O-]c1ccc(Br)cc1C=NCCN1CCOCC1	superoxide scavenging	–	160 µM	–	inhibition	41.4%
Cc1cn(CC(=O)N(CCNC(=O)CN(CCNC(=O)CN(CCNC(=O)CN(CCNC(=O)CN(CCNC(=O)CN(CCNC(=O)CN(CCNC(=O)CN(CCN)C(=O)Cn2cnc3c(=O)[nH]c(N)nc32)C(=O)Cn2cnc3c(N)ncnc32)C(=O)Cn2cc(C)c(=O)[nH]c2=O)C(=O)Cn2cnc3c(=O)[nH]c(N)nc32)C(=O)Cn2cc(C)c(=O)[nH]c2=O)C(=O)Cn2cnc3c(=O)[nH]c(N)nc32)C(=O)Cn2cnc3c(N)ncnc32)CC(=O)NCCN(CC(=O)NCCOCCOCC(N)=O)C(=O)Cn2cnc3c(N)ncnc32)c(=O)[nH]c1=O	UV melting	DNA duplex with T·C mismatch	pH 7.2, 1 µM each strand	–	Tm	22.9 °C
N#Cc1cc(C(=O)OCC[18F])c(C(F)(F)F)nc1N1CCN(C(=O)Cc2ccccc2)CC1	model, four-parameter reference tissue, PET	human epilepsy patients, epileptic focus	dose not given, unit not given	baseline: contralateral reference region	binding potential (BPND)	0.23
COC1CN([C@H]2CC[C@H]([C@@]3(C)Oc4c(Cl)cc(C(=O)NCc5c(SC)cc(C)[nH]c5=O)c(C)c4O3)CC2)C1	RNA-seq, item: BMI1 mouse homolog	mouse, HT-1376 xenograft, whole blood	dose not given	baseline: vehicle	log2 fold change	0.986
CCCCCc1ccc(S(=O)(=O)N2CC2C(=O)OC)cc1 (stereo not drawn)	–	mouse, Lewis lung carcinoma	intraperitoneal, 15 mg/kg, 16 doses, day 13	–	tumour growth inhibition	68%
Cc1cn(CC(=O)N(CC(=O)N[C@H]2COC[C@@H]2N(CC(=O)NCCOCCOCC(N)=O)C(=O)Cn2cnc3c(N)ncnc32)[C@H]2COC[C@@H]2NC(=O)CN(C(=O)Cn2cnc3c(N)ncnc32)[C@H]2COC[C@@H]2NC(=O)CN(C(=O)Cn2cnc3c(=O)[nH]c(N)nc32)[C@H]2COC[C@@H]2NC(=O)CN(C(=O)Cn2cc(C)c(=O)[nH]c2=O)[C@H]2COC[C@@H]2NC(=O)CN(C(=O)Cn2cnc3c(=O)[nH]c(N)nc32)[C@H]2COC[C@@H]2NC(=O)CN(C(=O)Cn2cc(C)c(=O)[nH]c2=O)[C@H]2COC[C@@H]2NC(=O)CN(C(=O)Cn2cnc3c(N)ncnc32)[C@H]2COC[C@@H]2NC(=O)CN(C(=O)Cn2cnc3c(=O)[nH]c(N)nc32)[C@H]2COC[C@@H]2N)c(=O)[nH]c1=O	UV melting	DNA duplex with T·C mismatch	pH 7.2, 1 µM each strand	–	Tm	50.7 °C
Cc1cccc(C)c1CNc1cc(C(=O)N2CCC2)cn2c(C)c(C)nc12	basal gastric acid secretion	pylorus-ligated rat	oral, 2 mg/kg	–	total acid output	64.3 ± 8.5 µEq/3 h
OC(COCC1COc2ccccc2O1)CN1CCN(c2ccccc2)CC1 (stereo not drawn)	–	zebrafish larvae, 7 dpf	10 µM, minute 2	–	larval motion	4.2 ± 1.5 pixels/frame
C[C@@H]1CN(c2ccnc(C(=O)N[C@H]3C[C@@H]3c3ccccc3)c2)CC[C@@H]1O	–	female heterozygous SLC6A8 P549L mice, hippocampus	oral, 30 mg/kg once daily	–	creatine concentration	795 µg/mL and 931 µg/mL and 1060 µg/mL

A few entries again:
Compound	test	test system	conditions	scale	endpoint	value
N#Cc1cc(C(=O)OCC[18F])c(C(F)(F)F)nc1N1CCN(C(=O)Cc2ccccc2)CC1	model, four-parameter reference tissue, PET	human epilepsy patients, epileptic focus	dose not given, unit not given	baseline: contralateral reference region	binding potential (BPND)	0.23
CC(=O)[O-].O.O.O.O.[Ni+2].[O-]c1ccc(Br)cc1C=NCCN1CCOCC1	superoxide scavenging	–	160 µM	–	inhibition	41.4%
Cc1cnc2nc1Nc1cccc(c1)COC/C=C/COCc1cc(ccc1OCCN1CCOCC1)N2	–	BALB/c mice rhEPO-induced polycythemia, spleen	75 mg/kg	–	CD71/Ter119 cells	19.3% and 22.5% and 20.3% and 19.6% and 15.7% and 23.4%
O=S(=O)(NCc1ccncc1)c1ccc(C2CCCCC2)cc1	immunohistochemistry	CK-p25 mice female, hippocampus	ip, 0.3 mg/kg daily, 6 wk	baseline: vehicle	GFAP area reduction	~25%
